Measurements pooled from the literature.
Each line is one published result; not all experiments were run side by side. “And” joins repeats or separate records; there may be more than shown. Numbers after ± are the reported error.
KCNJ13 M125R: Inward rectifier potassium channel 13 (KCNJ13, Homo sapiens, UniProt O60928, M125R)
ALKBH2: DNA oxidative demethylase ALKBH2 (ALKBH2, Homo sapiens, UniProt Q6NS38)
KCNK18: Potassium channel subfamily K member 18 (KCNK18, Homo sapiens, UniProt Q7Z418)
Inward rectifier potassium channel 4: Inward rectifier potassium channel 4 (Homo sapiens, UniProt P48050)
Cyp2b1: Cytochrome P450 2B1 (Cyp2b1, Rattus norvegicus, UniProt P00176)
Kir1 channel protein: Kir1 channel protein (Aedes aegypti, UniProt L0EQS9)
MAL12: Alpha-glucosidase MAL12 (MAL12, Saccharomyces cerevisiae S288c, UniProt P53341)
Urease: Urease (Canavalia ensiformis, UniProt P07374)
CAPN1: Calpain-1 catalytic subunit (CAPN1, Homo sapiens, UniProt P07384)

Substance | target | test | test system | conditions | IC50
Cc1ccsc1S(=O)(=O)NC[C@H]1O[C@@H](C)[C@@H](O)[C@@H](O)[C@@H]1O | fucose-binding lectin LecB (Pseudomonas aeruginosa, UniProt A0A0H2ZE85) |  |  |  | 0.2 to 0.33 µM
COc1cccc(Cn2c(=N)n(CC(O)COc3ccc(C)cc3)c3ccccc32)c1 (stereo not shown) | KCNJ13 M125R | ion flux, inhibitor |  |  | 3 µM
O=c1oc2c(O)c(O)cc3c(=O)oc4c(O)c(O)cc1c4c23 | ALKBH2 | 1-methyladenine repair, inhibitor, HPLC |  | 1 h, 37 °C, added: ssDNA 16mer 5 µM | 28.3 µM
Cc1ccc(OCC(O)Cn2c(=N)n(Cc3ccccc3)c3ccccc32)cc1 (stereo not shown) | KCNJ13 M125R | ion flux, inhibitor |  |  | 4.77 µM and 4.9 µM
Nc1ncnc2c1ncn2[C@@H]1O[C@H](CSCC[C@H](N)C(=O)O)[C@@H](O)[C@H]1O | Histone-lysine N-methyltransferase 2A, with RbBP5 and WDR5 (KMT2A, Homo sapiens, UniProt Q03164) | FL-NAH displacement, fluorescence polarization |  | 30 min, trimeric complex, added: 50 nM FL-NAH | 2 ± 0.2 µM
CCn1c(=O)/c(=C2\Sc3cc(Cl)ccc3N2C)s/c1=C\c1scc[n+]1Cc1ccccc1 | Heat shock 70 kDa protein 1A, with Bag1 (HSPA1A, Homo sapiens, UniProt P0DMV8) | protein-protein interaction, inhibitor, flow cytometry protein interaction |  | added: labeled Bag1 50 nM | 0.6 ± 0.1 µM
C[C@@H](CNCc1ccccc1)N1C[C@H](CCCNC(=N)N)N(CCc2cccc(F)c2)C1=S | DRD2 (Homo sapiens, UniProt P14416) | receptor activation, antagonist, FLIPR |  |  | > 10 µM
N#Cc1ccc(F)c(OCC(O)Cn2c(=N)n(Cc3ccccc3)c3ccccc32)c1 (stereo not shown) | KCNJ13 M125R | ion flux, inhibitor |  |  | 4.33 µM
O=c1cc(-c2cccc3ccccc23)[nH][nH]1 | ALPL (Homo sapiens, UniProt P05186) | enzyme activity, inhibitor, luminescence |  | added: 0.1 M DEA, 50 µM CDP-star | 4.01 ± 0.223 µM
Nc1ncnc2c1ncn2[C@H]1C[C@H](OP(=O)(O)O)[C@@H](COP(=O)(O)O)O1 | AASDHPPT (Homo sapiens, UniProt Q9NRN7) | phosphopantetheinylation, inhibitor, fluorescence polarization |  | 45 min, pH 7.6, 10% DMSO, added: VibB 10 µM and rhodamine-CoA 5 µM | 51 ± 1 µM
CCc1oc2ccccc2c1C(=O)c1cc(C(C)(C)C)c(O)c(C(C)(C)C)c1 | SLC22A12 (Homo sapiens, UniProt Q96S37) | transporter uptake, inhibitor, radiometric |  | oocytes | 0.25 µM
Clc1ccc(C(c2ccc(Cl)cc2)n2cc[n+](CC(OCc3ccc(Cl)cc3Cl)c3ccc(Cl)cc3Cl)c2)cc1 (stereo not shown) | KCNK18 | ion flux, inhibitor |  |  | 27.9 µM
Cc1ccccc1OCC(O)Cn1c(=N)n(Cc2ccccc2)c2ccccc21 (stereo not shown) | Inward rectifier potassium channel 4 | ion flux, inhibitor, fluorescence |  |  | 5.33 µM
C#CCOc1ccc2c(=O)cc(-c3ccccc3)oc2c1 | Cyp2b1 | enzyme activity, inhibitor | supersomes | added: pentoxyresorufin 5 µM | > 10 µM
CC(=O)SCC(=O)CCCCCNCCCN | hdac10 (Danio rerio, UniProt F1QCV2) | enzyme activity, inhibitor |  | with preincubation | 0.18 µM
tannic acid | ALKBH2 | enzyme activity, inhibitor, HPLC |  | 1 h, 37 °C, 2-oxoglutarate and Fe(II) present, added: 3-methylcytosine in single-stranded DNA | 3.9 µM
COc1cc2c(cc1OC)-c1c/c(=N\c3c(C)cc(C)cc3C)n(C)c(=O)n1CC2 | KCNK18 | ion flux, inhibitor |  |  | 8.42 µM
NS(=O)(=O)Oc1ccc(CC(c2ccc(Cl)cc2)n2cncn2)cc1 (racemic) | Steryl-sulfatase (STS, Homo sapiens, UniProt P08842) | enzyme activity, inhibitor | JEG-3 | 1 h, added: [3H]oestrone sulfate | 2.23 ± 0.666 µM
Nc1nc2c(ncn2[C@@H]2O[C@H](COP(=O)(O)OP(=O)(O)O)[C@@H](O)[C@H]2O)c(=O)[nH]1 | Tubulin alpha-1B chain/TUBB2B (Bos taurus, UniProt P81947+Q6B856) | tubulin assembly, inhibitor, turbidimetry |  | tubulin 30 µM, GTP 5 µM, added: paclitaxel 30 µM | 58 ± 20 µM
COc1ccc(OCC(O)Cn2c(=N)n(Cc3ccccc3)c3ccccc32)cc1 (stereo not shown) | Inward rectifier potassium channel 4 | ion flux, inhibitor, fluorescence |  |  | 3.87 µM
Cc1ncc(CNc2cc(N3CCN(S(=O)(=O)c4ccc(F)cc4)CC3)ccc2[N+](=O)[O-])o1 | Kir1 channel protein | ion flux, inhibitor, fluorescence |  |  | 0.609 µM
CO[C@H]1/C=C/O[C@@]2(C)Oc3c(C)c(O)c4c(O)c(c(/C=N/N5CCN(C)CC5)c(O)c4c3C2=O)NC(=O)/C(C)=C\C=C\[C@H](C)[C@H](O)[C@@H](C)[C@@H](O)[C@@H](C)[C@H](OC(C)=O)[C@@H]1C | SLCO1B1 (Homo sapiens, UniProt Q9Y6L6) | transporter uptake, inhibitor, radiometric | HEK293 | 1 h, pH 7.4 | > 10 µM
N#CC1=C(N)Oc2c(c(=O)[nH]c3ccccc23)C1c1ccc(OCc2cn(Cc3ccc(Cl)cc3)nn2)cc1 (stereo not shown) | MAL12 | enzyme activity |  |  | 14.67 ± 0.06 µM
O=C(/C=C/c1cccc(S(=O)(=O)Nc2ccccc2)c1)NO | HDAC (Lucilia cuprina egg nuclear extract) | enzyme activity, inhibitor, fluorometric |  |  | < 0.3 µM
CC(C)C[C@H](NC(=O)[C@H](CC(N)=O)NC(=O)[C@H](CC(C)C)NC(=O)[C@@H](NC(=O)[C@@H](NC(=O)[C@@H]1CCCN1C(=O)[C@H](CCCNC(=N)N)NC(=O)[C@H](CCCCN)NC(=O)[C@@H]1CCCN1C(=O)[C@H](CCCNC(=N)N)NC(=O)[C@H](CCCNC(=N)N)NC(=O)[C@H](CCCNC(=N)N)NC(=O)[C@H](CCCNC(=N)N)NC(=O)[C@H](CCC(N)=O)NC(=O)[C@H](CCCNC(=N)N)NC(=O)[C@H](CCCNC(=N)N)NC(=O)[C@H](CCCCN)NC(=O)[C@H](CCCCN)NC(=O)[C@H](CCCNC(=N)N)NC(=O)CNC(=O)[C@@H](N)Cc1ccc(O)cc1)[C@@H](C)O)[C@@H](C)O)C(=O)N[C@@H](Cc1ccccc1)C(N)=O | MAPK8 (Homo sapiens, UniProt P45983) | kinase activity, inhibitor |  | 60 min, pH 7.4, 30 °C, added: 1 µM Sab substrate, 1 µM ATP | 0.022 ± 0.01 µM
[Cl-].[Cl-].[Zn+2] | HVCN1 (Homo sapiens, UniProt Q96D96, E119A/H193A) | proton current, inhibitor, whole-cell voltage clamp | human cells | pH 6.5, test pulse 100 mV | 282 µM

Substance | target | test | test system | conditions | IC50
CCOC(=O)C1=C(C)NC2=C(C(=O)CC(C)(C)C2)C1c1cc(Br)c(OCC)c(Br)c1 (stereo not shown) | MAL12 | enzyme activity, inhibitor, absorbance |  | pH 6.8 | 6.34 µM
N#CC1=C(N)Oc2c(c(=O)[nH]c3ccccc23)C1c1ccc(OCc2cn(Cc3ccccc3)nn2)cc1 (stereo not shown) | MAL12 | enzyme activity |  |  | 20.01 ± 0.02 µM
Cc1ccc2nc(C3CC3)n(-c3ccc4[nH]ncc4c3)c2n1 | GRIA1/CACNG8 (Homo sapiens, UniProt P42261+Q8WXS5) | calcium influx, antagonist, FLIPR | HEK293 expressing GluA1o | added: glutamate 100 µM | 0.0034 µM
O=C(OC(C(F)(F)F)C(F)(F)F)N1CCN(C(c2ccc(Cl)cc2)c2ccc(Cl)cc2)CC1 | Monoacylglycerol lipase-like protein (Plasmodium falciparum, UniProt Q8IJ22) | enzyme activity, inhibitor |  | added: 4-methylumbelliferyl octanoate 10 µM | 0.0026 µM
CC12CC3CC(C)(C1)CC(N)(C3)C2 | Gria2 (Rattus norvegicus, UniProt P19491) | ion current, inhibitor, whole-cell patch-clamp |  | holding potential -100 mV, added: glutamate 10 mM, cyclothiazide 100 µM | 4.1 ± 1.3 µM
Cc1cc(OCC(=O)N/N=C/c2ccc(OCc3cn(Cc4ccc(Cl)cc4)nn3)cc2)c2c(C)cc(=O)oc2c1 | Urease | enzyme activity, inhibitor |  |  | 7.5 ± 0.54 µM
CN(C)c1ccc(/N=N/c2ccc(NC(=S)N3CCc4ccccc4C3)cc2)cc1 | Urease | enzyme activity, inhibitor, absorbance |  |  | 32.7 µM
CCCCCC/C=C\CC(=O)N[C@@H](CO)C(=O)N[C@H](C(=O)N[C@@H](CO)[C@@H](O)CC(=O)N[C@H](C(=O)N[C@@H]1C=CC(=O)N[C@@H](C(C)C)C(=O)N(C)[C@@H](Cc2ccc(O)cc2)C(=O)OC1)C(C)C)C(C)C | CAPN1 | enzyme activity, inhibitor, fluorescence |  |  | 0.0565 µM
[Cl-].[Cl-].[Cl-].[La+3] | human MMP-2 catalytic domain | inhibitor |  | pH 7.5, 37 °C, 45 min preincubation, added: DQ-gelatin | 9.5 ± 0.24 µM
Angeli's salt | GAPDH (Oryctolagus cuniculus, UniProt P46406) | enzyme activity, inhibitor, NADH absorbance |  | 60 min, pH 7.4, 25 °C | 0.4 µM
CC(=O)Nc1ncc(O)cn1 | PTGS1 (Ovis aries, UniProt P05979) | enzyme activity, inhibitor |  | pH 8 | 761 µM
O=C(Nc1nc2ccc(F)cc2s1)[C@H](Cc1c[nH]cn1)NC(=O)[C@@H]1O[C@H]1C(=O)O | CAPN1 | inhibitor, FRET |  | 20 min | > 1 µM
Cc1cc(OCC(=O)N/N=C/c2cccc(OCc3cn(Cc4ccc(Br)cc4)nn3)c2)c2c(C)cc(=O)oc2c1 | Urease | enzyme activity, inhibitor |  |  | 10.1 ± 0.28 µM
O=C1c2c(O)ccc(O)c2C(=O)c2c(NCCNCCO)ccc(NCCNCCO)c21 | MCU (Homo sapiens, UniProt Q8NE86) | mitochondrial Ca2+ uptake, aequorin | HeLa permeabilized with digitonin | pH 7.2, added: succinate and pyruvate, thapsigargin pretreatment | ~10 µM
O=C(O)c1ccc(C=C2SC(=S)N(c3cccc(C(F)(F)F)c3)C2=O)cc1 | volume-regulated anion channel subunit (Cricetulus griseus, UniProt G3IGZ4) | volume-sensitive chloride current, inhibitor, whole-cell patch clamp | PS120 (hamster, CFTR-negative) | added: hypotonic stimulus | 5.33 µM
COc1cccc(OCC(O)Cn2c(=N)n(Cc3ccccc3)c3ccccc32)c1 (stereo not shown) | Inward rectifier potassium channel 4 | ion flux, inhibitor, fluorescence |  |  | 3.13 µM
CC(C)S(=O)(=O)c1ccc2nccc(Nc3ccc4sc(C5CCCC5)nc4c3)c2c1 | RIPK3 (Homo sapiens, UniProt Q9Y572) | enzyme activity, inhibitor, ADP detection |  |  | 0.002 µM
O=[N+]([O-])c1ccc(NC(=S)N2CCc3ccccc3C2)cc1 | Urease | enzyme activity, inhibitor, absorbance |  |  | 50.4 µM
C#Cc1cccc(Nc2ncnc3cc(OC)c(OCCCCCCC(=O)NO)cc23)c1 | HDAC (Lucilia cuprina egg nuclear extract) | enzyme activity, inhibitor, fluorometric |  |  | 0.032 µM and 0.0317 µM
NC(=O)c1cccc(-c2cc(OC(=O)NC3CCCCC3)ccc2O)c1 | Ephx2 (Rattus norvegicus, UniProt P80299) | enzyme activity, inhibitor, fluorescence |  | pH 7.4 | 16.6 µM
O=c1cc(-c2cccc(O)c2)oc2ccccc12 | Cyp2b1 | enzyme activity, inhibitor | supersomes | added: pentoxyresorufin 5 µM | > 50 µM
CC(C)COc1cccc(CC(=O)N2CCNc3nc(C(F)(F)F)ccc3[C@H]2CC(=O)O)c1 | Gastrin-releasing peptide receptor (Rattus norvegicus, UniProt P52500) | ligand displacement, radioligand |  |  | > 3 µM
CCNC(CCC(N)C(=O)O)CC1OC(n2cnc3c(N)ncnc32)C(O)C1O (stereo not shown) | SETD2 (Homo sapiens, UniProt Q9BYW2) | enzyme activity, inhibitor, radiometric methylation |  | added: SAM and peptide at sub-Km | 8.2 ± 1.2 µM
O=C(Nc1cc(F)c(F)c(F)c1Br)c1cc(S(=O)(=O)N2CCOCC2)c(Cl)cc1Cl | LPAR1 (Homo sapiens, UniProt Q92633) | Ca2+ mobilization, antagonist | RH7777 | added: LPA at EC50 | > 100 µM
O=[N+]([O-])c1ccc(N2CCN(S(=O)(=O)c3ccc(F)cc3)CC2)cc1NCc1cnco1 | Kir1 channel protein | ion flux, inhibitor, fluorescence |  |  | 0.108 µM
COc1ccc(-c2cc(=O)c3c(OC)c(OC)c(OC)c(OC)c3o2)cc1OC | SLCO2B1 (Homo sapiens, UniProt O94956) | transporter uptake, inhibitor, radiometric | MDCK-II | 3 min, pH 6 | < 5 µM and 3.7 µM

For quick reference, copied from above:
Substance | target | test | test system | conditions | IC50
CC(=O)Nc1ncc(O)cn1 | PTGS1 (Ovis aries, UniProt P05979) | enzyme activity, inhibitor |  | pH 8 | 761 µM
O=C(Nc1nc2ccc(F)cc2s1)[C@H](Cc1c[nH]cn1)NC(=O)[C@@H]1O[C@H]1C(=O)O | CAPN1 | inhibitor, FRET |  | 20 min | > 1 µM
Cc1cc(OCC(=O)N/N=C/c2cccc(OCc3cn(Cc4ccc(Br)cc4)nn3)c2)c2c(C)cc(=O)oc2c1 | Urease | enzyme activity, inhibitor |  |  | 10.1 ± 0.28 µM
O=C1c2c(O)ccc(O)c2C(=O)c2c(NCCNCCO)ccc(NCCNCCO)c21 | MCU (Homo sapiens, UniProt Q8NE86) | mitochondrial Ca2+ uptake, aequorin | HeLa permeabilized with digitonin | pH 7.2, added: succinate and pyruvate, thapsigargin pretreatment | ~10 µM
O=C(O)c1ccc(C=C2SC(=S)N(c3cccc(C(F)(F)F)c3)C2=O)cc1 | volume-regulated anion channel subunit (Cricetulus griseus, UniProt G3IGZ4) | volume-sensitive chloride current, inhibitor, whole-cell patch clamp | PS120 (hamster, CFTR-negative) | added: hypotonic stimulus | 5.33 µM
